Results gathered from unrelated publications.
A part holds a random share of what one study measured.

Study 1
Target: Histone acetyltransferase KAT6A, both winged helices, GST fusion (KAT6A, Homo sapiens, UniProt Q92794, residues 1-181)
Method: protein binding microarray
Form: double-stranded DNA, one strand shown
Sample: in vitro
Tested at: not given
Setting: 8-mer, flanks averaged, mean of 2 arrays, mostly near background
Relative to: not given
Reading: higher = stronger binding
Measurement: E-score
Residues (chain): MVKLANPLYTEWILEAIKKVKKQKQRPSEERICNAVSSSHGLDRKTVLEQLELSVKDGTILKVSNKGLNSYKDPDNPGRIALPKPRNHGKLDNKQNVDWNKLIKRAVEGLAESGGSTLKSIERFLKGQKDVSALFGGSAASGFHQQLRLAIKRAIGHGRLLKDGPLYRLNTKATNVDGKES
ACATAAGG: -0.0144
CCTACACG: -0.0727
CGGGATTC: 0.212
CTATAGAG: -0.0988
ACTCTCTC: -0.131
CTGCGTGC: 0.147
CAAATAAA: -0.0775
CAAGTAAA: -0.0284
AGGTGTCC: -0.0222
CAAAAATC: -0.0555
AGCTTTAG: -0.0932
CATAAGAC: 0.0302
CGTCGAAA: 0.19
CTGGAGCA: -0.114
AAAGCTTG: -0.153
ACGTATAG: -0.00342
CGTTTCGA: 0.043
AATTATGC: 0.0496
ACCTTGTC: 0.0704

Study 2
Target: Sal-like protein 4, full length isoform A (SALL4, Homo sapiens, UniProt Q9UJQ4, residues 1-1053)
UniProt Q9UJQ4, sequence (whole entry, looked up): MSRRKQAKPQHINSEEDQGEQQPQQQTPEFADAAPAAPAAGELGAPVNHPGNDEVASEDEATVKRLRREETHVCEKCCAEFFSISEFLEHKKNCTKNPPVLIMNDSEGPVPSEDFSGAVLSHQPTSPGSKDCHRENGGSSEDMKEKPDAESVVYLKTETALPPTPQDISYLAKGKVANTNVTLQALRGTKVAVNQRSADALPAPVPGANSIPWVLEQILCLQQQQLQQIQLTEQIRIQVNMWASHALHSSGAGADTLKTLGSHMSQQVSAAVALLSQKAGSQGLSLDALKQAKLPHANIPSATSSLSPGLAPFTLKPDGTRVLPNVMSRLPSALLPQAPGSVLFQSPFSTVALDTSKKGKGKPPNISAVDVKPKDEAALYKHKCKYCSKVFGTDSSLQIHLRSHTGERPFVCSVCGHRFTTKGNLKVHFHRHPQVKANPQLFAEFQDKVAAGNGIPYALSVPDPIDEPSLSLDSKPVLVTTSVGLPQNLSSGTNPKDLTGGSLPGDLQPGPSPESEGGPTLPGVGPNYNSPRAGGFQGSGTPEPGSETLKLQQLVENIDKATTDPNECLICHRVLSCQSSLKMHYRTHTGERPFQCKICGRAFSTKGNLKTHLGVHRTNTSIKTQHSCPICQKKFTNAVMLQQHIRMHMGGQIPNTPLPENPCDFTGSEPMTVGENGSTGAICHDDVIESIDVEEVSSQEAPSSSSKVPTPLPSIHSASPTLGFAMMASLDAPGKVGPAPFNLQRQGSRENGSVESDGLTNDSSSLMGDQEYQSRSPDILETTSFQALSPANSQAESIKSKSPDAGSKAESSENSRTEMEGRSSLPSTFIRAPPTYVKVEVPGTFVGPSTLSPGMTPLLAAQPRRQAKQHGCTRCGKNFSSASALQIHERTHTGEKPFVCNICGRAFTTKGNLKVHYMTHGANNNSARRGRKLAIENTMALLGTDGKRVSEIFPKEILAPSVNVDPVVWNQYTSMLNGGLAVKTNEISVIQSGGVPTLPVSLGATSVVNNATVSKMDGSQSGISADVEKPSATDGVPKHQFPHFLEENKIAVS
Method: universal PBM
Form: double-stranded DNA, one strand shown
Sample: in vitro
Tested at: 600 nM
Setting: 8-mer, flanks averaged, mean of replicates
Reading: higher = stronger binding
Measurement: E-score
GGATAGCA: 0.0915
GTCATTAA: 0.235
CAACATCC: -0.182
CTGCAGAA: 0.0442
CGTTGGAG: -0.212
ATGGTGGG: -0.256
ACCCGAGA: -0.267
GTTGTAAA: 0.154
ATACAGCC: -0.032
CACGGAGC: -0.177
AAATCGCG: -0.0451
ATGCGACA: 0.0455
TCTCGACA: 0.0867
ACCGGCCA: -0.333
ATTCTGGA: 0.191
GCTTGTGA: -0.122
AGAGTCCG: -0.164
CCTAAGGA: 0.002
GCACTGGC: -0.227
TAAAACGA: 0.0899
AGAATGAC: 0.0776
ATGACGCG: 0.0841
CTGTTAAC: 0.127
CTGGAATA: 0.17
ACCCATTA: 0.0921

Study 3
Target: TATA-box-binding protein 1 (TBP1, Arabidopsis thaliana, UniProt P28147, residues 1-200, full length assumed)
Method: protein-binding microarray
Form: double-stranded DNA, one strand shown
Sample: in vitro
Tested at: not given
Setting: k-mer, scored over probes, only values ≥0.25
Reading: higher = stronger binding
Measurement: E-score
Target sequence (chain): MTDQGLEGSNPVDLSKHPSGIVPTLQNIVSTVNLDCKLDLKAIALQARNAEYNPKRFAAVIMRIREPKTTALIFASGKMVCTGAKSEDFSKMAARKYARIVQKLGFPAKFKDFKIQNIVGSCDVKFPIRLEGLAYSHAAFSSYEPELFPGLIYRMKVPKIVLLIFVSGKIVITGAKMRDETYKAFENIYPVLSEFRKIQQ
ATCTAAA: 0.258
CTAAATA: 0.322
AAATAAT: 0.34
TTAATAA: 0.413
AGCTTAA: 0.268
ATCCTTA: 0.281
AATATAA: 0.472
AATATCC: 0.292
ATTATAC: 0.394
CGTAATA: 0.254
ATAAAAT: 0.435
AAGTTAT: 0.265
TATAAAA: 0.475
AAATTAG: 0.252
ATATTAA: 0.443
TATCATA: 0.336
TATTTAA: 0.479
ACCTTAT: 0.287
AACTATA: 0.368
GCATAAA: 0.365
ATAAATG: 0.437
CACTATA: 0.299
TTTAAAA: 0.449
CCATTAA: 0.261
AATATTC: 0.355

Study 4
Target: RING finger protein unkempt homolog, zinc fingers 1-6, GST-SBP tag (UNK, Homo sapiens, UniProt Q9C0B0, residues 30-357)
UniProt Q9C0B0, sequence (30-357, looked up): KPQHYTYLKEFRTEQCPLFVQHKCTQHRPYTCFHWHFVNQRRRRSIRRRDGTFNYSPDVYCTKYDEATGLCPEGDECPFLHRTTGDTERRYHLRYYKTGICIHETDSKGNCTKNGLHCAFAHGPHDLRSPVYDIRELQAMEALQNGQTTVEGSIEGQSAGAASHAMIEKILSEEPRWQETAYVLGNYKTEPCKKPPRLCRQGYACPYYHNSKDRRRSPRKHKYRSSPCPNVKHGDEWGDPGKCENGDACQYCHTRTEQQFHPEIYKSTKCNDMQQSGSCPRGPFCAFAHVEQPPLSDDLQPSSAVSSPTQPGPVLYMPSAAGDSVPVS
Method: RNA Bind-n-Seq
Form: RNA
Sample: in vitro
Tested at: not given
Setting: RNA with constant flanks, ends assumed
Relative to: input RNA pool
Reading: higher = stronger binding
Measurement: bound/input enrichment
Shared flanks, not repeated: GGGAGUUCUACAGUCCGACGAUC … CAACAGAGGAUUGAGCAUCA
UCUCAUUGUCUCACACUCUGACAAGAGUGAGUUAUUAUUUUUUUCUUUUUUACAUUUUGUACCGAGACAAAUUCAUUUAAACAAACUUAUUAUUAUUAUUAUUUUUUACAAAAUAUAUAU: 46.4 ratio
AACACUAGACAAAAAAAAAUCAACUGUAUUUGUAAAAAUUUACCUCAAACCAUUUAAUUUUACCGUGUGAUUGGUUAAUCCCAGGGCAUUUGGUAUGAACCAAAGUGCAUUCCUUUUUUU: 2.84 ratio
GGACUUGAACAACUCACCAAGUCUCCAGUGGAAUUUGUAGAAUAUAACAAAAUGCAGCUCCGCAGGAUAUAUCCAAAAGGAACACGUGUGGAUUCAUCCAACUAUAUGCCUCAGCUCUUC: 0.133 ratio
AGCAAAAAUCAAAUUAAAGUAGAUCUUGUAGAUGAGAAUUUUACAGAAUUAAGAGGAGAAACCGCAGGACCUCCAGACACACCAUAUGAAGGAGGAAGAUACCAACUAGAGAUAAAAAUA: 14 ratio
UACACAUCAUUUUGGAAUGACUGUAUAUCAUCUGGAUUACGUGGCUGUAUGUUAAUUGAAUCCGCUUUGAGAGGAAGGUUACAGUUAGAGGCUUGUGGAAUGAGAAGAAAAAGUCUUUUA: 0.213 ratio
GCUUGUGCCACUCAGGCUAUCGUAAGUGUACUACUGAACUGUACGCAUCAAGAUGUGCAUUCCGGAGAGACAUUAUCAGAAUUUAAAGAAUUUUCUCAAAGUUUUGAUGCAGCUAUGAAG: 0.0928 ratio
AUAAGCCCUGAUUCUGGUUUUUAACAAGCUGUUUGUUCAUCUAUAUUUAGUUUAAAACCGGCCGUAUUAUCUUUCUGUACAUAGUGUACAUUACAACUAAAAGUGAUGGAAAAAUACUGU: 0.428 ratio
CCUGAGAAUGUCUAUAGCGUUCACUUCGAAAAGGAGCAUAAAGCUGAGAAAGUCCCAGCCGCCGCUAACUACAUUAUGAAAAUACACAAUUUUACUAGCAAAUGCCUCUACUGUAAUCGC: 2.63 ratio
GCCAUCAUCCCCUAUAUCCCCACUCUCAUCACGCAGCUCACACAGAAGCUGCUGGCUGUCCGUAAGAAUCCCAGUAAACCUCAUUUCAAUCACUACAUGUUUGAAGCAAUAUGCUUGUCU: 0.296 ratio
GGGACACAUACUGUAGUAUACUAGUGGGUGGGAGGCAUGGGGGUUAAGAUUGUAUAAACCACCGAUCCUGUGUAAGUUAGAGUUGUUGCUUACAUUUCAUAUAGAGUCUCACUAUUCAUA: 0.999 ratio
CUUUAUGGGCCUCGAAGAGUUGAAAUAAUGGAAGAAGAAAGUGAACAGUAAUCUUCAAUUCCGCUAUUUAUGCUUAGGUGUGAAUGUUUUUGUUGUUGUUGUUGAACAUUUCUAUAAUCU: 0.207 ratio

Study 5
Target: PABPC1L2, full length, GST fusion (mouse, UniProt A0ABA7IW68)
Method: RNAcompete
Form: RNA
Sample: in vitro
Tested at: 20 nM
Setting: 7-mer, probes averaged, single round
Relative to: mean of 7-mers
Reading: higher = stronger binding
Measurement: 7-mer Z-score
Construct (chain): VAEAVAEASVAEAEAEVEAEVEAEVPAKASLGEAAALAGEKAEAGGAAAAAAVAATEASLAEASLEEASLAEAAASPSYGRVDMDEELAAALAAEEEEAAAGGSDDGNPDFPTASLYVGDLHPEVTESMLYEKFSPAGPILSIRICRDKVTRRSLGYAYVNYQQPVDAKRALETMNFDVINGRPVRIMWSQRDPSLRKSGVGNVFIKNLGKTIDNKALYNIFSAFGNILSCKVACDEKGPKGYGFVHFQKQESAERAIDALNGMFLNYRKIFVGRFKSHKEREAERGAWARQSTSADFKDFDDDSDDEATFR
UUCGCCA: -0.344
ACGUGAU: -0.0772
AUUUGGA: -0.0391
CGUAGAG: -0.117
CGUGAAG: -0.157
UAGUCGG: -0.0899
CUAGUGU: -0.271
UACGCCC: -0.389
AGGCUCC: -0.0736
GCCGGGA: -0.168
CGGUGAG: -0.182
CCAGACG: 0.124
GCUCUGU: -0.313
GACUCCU: -0.315
GCGCAUC: -0.159
GGCGUCC: -0.135
CGUUCCA: -0.249
ACGGUUC: -0.119
CUCUACU: -0.291
CUUGUUA: -0.391
AUGAACU: -0.0989
AAGGGGA: 0.751
AUGUAAG: 0.0406
AGCCUGU: -0.253

Study 6
Target: RNA binding protein fox-1 homolog 2, RRM domain, GST-SBP tag (RBFOX2, Homo sapiens, UniProt O43251-10, residues 100-194)
Method: RNA Bind-n-Seq
Form: RNA
Sample: in vitro
Tested at: 365 nM
Setting: natural RNA segment, single round, ends assumed
Relative to: no-protein control
Reading: higher = stronger binding
Measurement: RBNS enrichment (R)
Shared flanks, not repeated: GGGAGUUCUACAGUCCGACGAUC … UGGAAUUCUCGGGUGCCAA
Construct (chain): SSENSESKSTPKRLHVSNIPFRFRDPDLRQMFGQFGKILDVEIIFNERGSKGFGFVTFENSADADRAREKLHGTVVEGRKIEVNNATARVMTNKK
UCCUAUGAAACAGUCCACUGGCAGGCUGGAGAUAUCUUACACUUUGAAGUUAUAUAUAUAUAAAACAAGUGUCUAUUUCUAGCUGAAAGAGUUUACCUCUUCUAGACAUU: 0.364
AAAGAUUCUUAAUCAAGAGUUUCAGAGUUUAGAAACUCGGAUGUUGGGCAAGUUAGGAAAUAUUCCACCAGCAAAAUUAACAUUACCAGCCAUCUCUGCAAAUGCUCCUG: 0.468
GGUACCUAACUUGGGCACAGCUGUAACUGAAGACCUAAUGAAGUAGUCAGAUGCUUACAACUAUUUAUAAUGCAUCAAUUUGAACUUAGAAGGUAGGAGAUCAGAUCAUA: 0.64
AUGCCGAUUUGAGUUCGCGACACUAUGUACUGCGUUUUUCAUUCUUGUAUUUGACUAUUUAAUCCUUUCUACUUGUCGCUAAAUAUAAUUGUUUUAGUCUUAUGGCAUGA: 0.39
UUUCUGUUAUAGUAACAAAAUAGAGUUAUGUAGAAUUGUAUGGAACUCAAAUUUAAACCAUGCUUUCUUGUAGUACUGAUUGAAACUUACACGUUUUAUUCUACUCAUAG: 0.627
ACUUAAAGUUGGCAAGUCUCAUCUUCAGUAAUACGGAUGCCAUGGGAGUGGCCAGGCCAGAUUGAAGGUGAAUAUGGAGCAGUAGCAGAAGCCUCAUUCCAGAACCCAUC: 0.205
GUUAUAUAUAAUUAUCCCUUUAAUUAAAGGGAACAGAUGGGCGUUUCUAGUUUUAAGCAGGCAGGAGCUUGGGACUAGGUUUGGUCACAGCAGCGAGCAUCCAAGGGUUG: 1.04
CAACUUUGCCUUUUAUGUAUUCUUACAUAGUUUCCUCUUGAAGAAAAAAAAAGCAGAGUUUUUGUUUUUCAACCCUUUAUGUUUGUUUUGUUUUAUUCUUAAAUAAGCAA: 0.766
GUGUUUGAAUGAAAACAACACGAAGGCUCAAUAUCACAUGGAUUUCCCAGUUUCUGUCUUUAAUAAGGCUUUCCUACAAGCCACUAUUUUCCAUGGGGCACUCACUCAGA: 1.14
CUCCUGAGGUGCAUUUUCUCAUCAUCCUUGCUUUACCACAAUGAGCAAUGAGGUCGGGUUUUAUAUGCAACUUAUUGUAUCUGAAUUCCUGUAGCACACCUCAUAGGUAU: 0.272
AAAGGAUCAGGCUCGUAGGGAGCAGGAUCAUGCCAGAAAUAGGGAUGGAAGUGCAUCCUCUGGGAAAAAGAUAAUGGCUUCUGAUUCAACAUAGCCAUAGUCCUUUGAAG: 0.676
GCUGUGCCUGCUCCAGAGGCAUGGGCCACCUGGGUAACAGCACACAGCAGAAAAGCACAGAGAGAAAAACAACUGGUCCAGAAAUUCAGUGGAUCCAUGACUUACGUGUC: 0.449

Excerpt of the above (study 3):
TATTTAA: 0.479
ACCTTAT: 0.287
AACTATA: 0.368
GCATAAA: 0.365
ATAAATG: 0.437
CACTATA: 0.299
TTTAAAA: 0.449
CCATTAA: 0.261
